Measured values collected from several papers.
Parts stem from different laboratories: compare values within a part only.
Sequence of UniProt O75582 (whole entry, looked up): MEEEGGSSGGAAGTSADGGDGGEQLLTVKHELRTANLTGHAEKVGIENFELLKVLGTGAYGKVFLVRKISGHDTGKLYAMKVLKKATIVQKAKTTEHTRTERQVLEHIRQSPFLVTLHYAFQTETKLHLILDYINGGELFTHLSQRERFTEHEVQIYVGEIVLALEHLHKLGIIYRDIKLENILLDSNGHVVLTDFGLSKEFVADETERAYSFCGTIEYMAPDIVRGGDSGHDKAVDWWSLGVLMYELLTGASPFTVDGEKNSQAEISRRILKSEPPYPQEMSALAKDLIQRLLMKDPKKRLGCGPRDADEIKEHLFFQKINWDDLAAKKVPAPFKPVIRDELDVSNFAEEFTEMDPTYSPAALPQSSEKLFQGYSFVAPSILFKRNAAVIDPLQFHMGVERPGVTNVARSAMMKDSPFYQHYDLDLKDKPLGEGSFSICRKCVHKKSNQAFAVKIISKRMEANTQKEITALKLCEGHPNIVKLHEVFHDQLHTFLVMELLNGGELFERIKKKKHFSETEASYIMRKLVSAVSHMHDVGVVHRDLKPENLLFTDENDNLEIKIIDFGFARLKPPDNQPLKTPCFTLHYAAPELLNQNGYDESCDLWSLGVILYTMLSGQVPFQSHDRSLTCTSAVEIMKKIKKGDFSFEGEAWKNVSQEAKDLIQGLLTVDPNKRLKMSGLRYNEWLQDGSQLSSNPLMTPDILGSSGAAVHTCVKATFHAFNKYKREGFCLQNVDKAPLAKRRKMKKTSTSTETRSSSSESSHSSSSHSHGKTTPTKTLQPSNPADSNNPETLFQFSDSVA
Sequence of UniProt Q9Y2K2 (whole entry, looked up): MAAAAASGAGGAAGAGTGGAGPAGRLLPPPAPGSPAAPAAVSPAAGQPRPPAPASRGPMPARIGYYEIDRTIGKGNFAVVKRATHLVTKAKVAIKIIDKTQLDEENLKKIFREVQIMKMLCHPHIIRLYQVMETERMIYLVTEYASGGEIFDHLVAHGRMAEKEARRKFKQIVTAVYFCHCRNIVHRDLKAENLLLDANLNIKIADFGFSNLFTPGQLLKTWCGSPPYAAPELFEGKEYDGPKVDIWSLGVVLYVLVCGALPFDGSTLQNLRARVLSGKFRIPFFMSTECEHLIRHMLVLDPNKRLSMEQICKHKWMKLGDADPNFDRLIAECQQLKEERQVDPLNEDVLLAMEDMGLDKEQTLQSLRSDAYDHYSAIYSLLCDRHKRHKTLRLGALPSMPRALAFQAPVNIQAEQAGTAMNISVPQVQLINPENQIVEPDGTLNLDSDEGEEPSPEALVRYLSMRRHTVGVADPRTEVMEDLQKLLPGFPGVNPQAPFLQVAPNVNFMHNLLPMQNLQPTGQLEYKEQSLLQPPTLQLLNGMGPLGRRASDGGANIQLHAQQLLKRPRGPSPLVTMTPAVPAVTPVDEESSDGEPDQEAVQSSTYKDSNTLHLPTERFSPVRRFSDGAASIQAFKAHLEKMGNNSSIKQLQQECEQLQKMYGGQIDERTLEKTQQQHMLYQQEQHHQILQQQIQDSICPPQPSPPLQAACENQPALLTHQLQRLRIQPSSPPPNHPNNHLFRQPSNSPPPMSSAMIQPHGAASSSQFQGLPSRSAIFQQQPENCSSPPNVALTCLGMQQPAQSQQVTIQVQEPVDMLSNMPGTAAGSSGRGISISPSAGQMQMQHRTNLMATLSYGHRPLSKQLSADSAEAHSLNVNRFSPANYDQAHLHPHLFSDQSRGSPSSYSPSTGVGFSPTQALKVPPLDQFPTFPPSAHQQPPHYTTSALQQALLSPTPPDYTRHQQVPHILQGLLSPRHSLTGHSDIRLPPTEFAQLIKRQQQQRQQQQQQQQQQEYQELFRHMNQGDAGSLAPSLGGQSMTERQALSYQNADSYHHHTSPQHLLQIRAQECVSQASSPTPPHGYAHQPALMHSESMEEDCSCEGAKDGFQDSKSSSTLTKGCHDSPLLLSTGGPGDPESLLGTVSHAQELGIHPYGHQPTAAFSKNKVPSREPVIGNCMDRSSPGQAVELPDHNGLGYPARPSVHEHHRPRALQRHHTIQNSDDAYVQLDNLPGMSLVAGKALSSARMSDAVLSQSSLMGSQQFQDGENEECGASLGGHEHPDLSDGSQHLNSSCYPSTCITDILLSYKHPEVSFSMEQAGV
Sequence of UniProt P07949 (whole entry, unmodified, looked up): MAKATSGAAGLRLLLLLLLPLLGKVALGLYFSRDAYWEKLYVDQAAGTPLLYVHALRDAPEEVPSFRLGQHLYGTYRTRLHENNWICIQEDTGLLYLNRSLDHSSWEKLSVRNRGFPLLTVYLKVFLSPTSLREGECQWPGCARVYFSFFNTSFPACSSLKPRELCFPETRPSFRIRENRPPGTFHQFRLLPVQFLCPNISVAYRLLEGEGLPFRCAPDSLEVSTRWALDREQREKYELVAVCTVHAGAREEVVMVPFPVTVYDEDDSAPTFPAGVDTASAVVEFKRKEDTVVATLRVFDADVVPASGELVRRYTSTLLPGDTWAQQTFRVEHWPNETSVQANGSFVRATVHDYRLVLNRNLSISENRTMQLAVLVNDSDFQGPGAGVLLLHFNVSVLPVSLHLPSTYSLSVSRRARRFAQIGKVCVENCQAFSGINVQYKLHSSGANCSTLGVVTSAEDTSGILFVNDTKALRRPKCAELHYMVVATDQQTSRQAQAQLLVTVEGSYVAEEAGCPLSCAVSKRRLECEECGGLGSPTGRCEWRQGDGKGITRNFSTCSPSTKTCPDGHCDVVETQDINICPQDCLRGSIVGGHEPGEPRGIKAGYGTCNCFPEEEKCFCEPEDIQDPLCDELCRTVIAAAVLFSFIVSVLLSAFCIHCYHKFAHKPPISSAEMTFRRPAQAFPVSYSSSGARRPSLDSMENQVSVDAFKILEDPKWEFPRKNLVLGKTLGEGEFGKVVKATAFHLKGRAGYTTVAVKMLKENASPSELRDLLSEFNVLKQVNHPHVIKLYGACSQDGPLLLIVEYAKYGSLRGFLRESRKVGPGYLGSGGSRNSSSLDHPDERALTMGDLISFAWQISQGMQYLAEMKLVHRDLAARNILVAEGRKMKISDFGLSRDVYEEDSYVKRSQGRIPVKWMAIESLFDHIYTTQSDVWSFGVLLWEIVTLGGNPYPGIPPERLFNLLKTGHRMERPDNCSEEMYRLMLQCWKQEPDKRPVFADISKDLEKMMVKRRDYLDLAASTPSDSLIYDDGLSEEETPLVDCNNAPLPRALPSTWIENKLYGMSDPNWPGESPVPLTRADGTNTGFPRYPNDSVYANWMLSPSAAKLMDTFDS
Sequence of UniProt Q96PN8 (whole entry, looked up): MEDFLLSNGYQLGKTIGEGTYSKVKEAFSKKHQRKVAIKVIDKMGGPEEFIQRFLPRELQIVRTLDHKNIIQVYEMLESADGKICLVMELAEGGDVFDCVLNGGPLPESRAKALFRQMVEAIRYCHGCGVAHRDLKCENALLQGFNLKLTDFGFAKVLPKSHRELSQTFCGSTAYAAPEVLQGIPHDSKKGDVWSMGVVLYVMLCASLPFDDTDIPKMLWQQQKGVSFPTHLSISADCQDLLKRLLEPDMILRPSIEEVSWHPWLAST

Set 1
Cell line: A-375
Concentration: 100 µM
Time: 18 h
`C=CC[N+]1([C@H]2C[C@H]3[C@@H]4CC[C@H]5C[C@H](O)[C@@H](N6CCOCC6)C[C@]5(C)[C@H]4CC[C@]3(C)[C@H]2OC(C)=O)CCCC1` has a viability of 74.5%.
`C[C@H]1[C@H](OC(=O)CCC(=O)O)O[C@@H]2O[C@@]3(C)CC[C@H]4[C@H](C)CC[C@@H]1[C@@]24OO3` has a viability of 73.6%.
`CC(C)(C)C(=O)C(Oc1ccc(Cl)cc1)n1ccnc1` (centres unmarked) has a viability of 22.1%.
`Cc1ccc(N(CC2=NCCN2)c2cccc(O)c2)cc1` has a viability of 65.4%.
`COc1cc2c(Nc3ccc(Br)cc3F)ncnc2cc1OCC1CCN(C)CC1` has a viability of 8.45%.
For `Nc1c2ccccc2nc2ccccc12`, the viability was 20.8%.
`CN1CCC(=C2c3ccccc3CCc3cccnc32)CC1` gave a viability of 85.8%.
The viability of `COc1ccc2cccc(CCNC(C)=O)c2c1` is reported as 112%.
With `CCN(CCCCOC(=O)c1ccc(OC)c(OC)c1)C(C)Cc1ccc(OC)cc1` (centres unmarked) the viability was 42.7%.

Set 2
Target: Non-receptor tyrosine-protein kinase TYK2 (TYK2, Homo sapiens, UniProt P29597)
Sequence of UniProt P29597 (whole entry, looked up): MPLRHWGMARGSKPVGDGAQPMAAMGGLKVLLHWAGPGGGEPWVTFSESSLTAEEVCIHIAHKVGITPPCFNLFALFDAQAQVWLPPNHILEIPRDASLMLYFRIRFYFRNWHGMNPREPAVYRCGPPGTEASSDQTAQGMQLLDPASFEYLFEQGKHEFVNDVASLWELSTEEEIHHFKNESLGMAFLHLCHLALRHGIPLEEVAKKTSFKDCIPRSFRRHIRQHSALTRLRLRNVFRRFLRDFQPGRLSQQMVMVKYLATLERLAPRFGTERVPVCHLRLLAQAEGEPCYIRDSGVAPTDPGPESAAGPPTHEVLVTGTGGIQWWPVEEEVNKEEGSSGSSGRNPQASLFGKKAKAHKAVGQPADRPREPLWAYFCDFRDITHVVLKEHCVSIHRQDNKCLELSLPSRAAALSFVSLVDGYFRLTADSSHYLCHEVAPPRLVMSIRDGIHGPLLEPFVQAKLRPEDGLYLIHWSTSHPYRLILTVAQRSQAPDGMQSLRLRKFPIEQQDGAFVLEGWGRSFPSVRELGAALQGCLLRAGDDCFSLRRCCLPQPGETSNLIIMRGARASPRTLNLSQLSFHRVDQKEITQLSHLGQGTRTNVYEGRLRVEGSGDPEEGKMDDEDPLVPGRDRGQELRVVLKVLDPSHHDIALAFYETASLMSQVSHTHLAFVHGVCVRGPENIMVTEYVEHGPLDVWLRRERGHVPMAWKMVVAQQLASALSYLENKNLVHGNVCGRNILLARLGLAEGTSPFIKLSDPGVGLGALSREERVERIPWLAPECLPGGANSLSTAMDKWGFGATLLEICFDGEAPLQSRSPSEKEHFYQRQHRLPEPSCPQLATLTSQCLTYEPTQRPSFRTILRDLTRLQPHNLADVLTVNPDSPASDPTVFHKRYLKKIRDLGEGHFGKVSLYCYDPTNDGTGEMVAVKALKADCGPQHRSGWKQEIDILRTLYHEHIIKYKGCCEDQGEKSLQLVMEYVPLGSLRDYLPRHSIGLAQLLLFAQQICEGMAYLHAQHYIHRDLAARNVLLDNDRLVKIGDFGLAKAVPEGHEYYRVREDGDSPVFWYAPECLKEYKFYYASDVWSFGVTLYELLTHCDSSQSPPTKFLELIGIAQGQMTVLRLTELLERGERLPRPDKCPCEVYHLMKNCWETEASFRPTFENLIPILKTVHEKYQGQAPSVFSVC
Effect on: enzyme activity
Mode: inhibitor
Concentration: 0.5 µM
Baseline: control
The remaining activity of `COc1cc2ncnc(Nc3ccc(F)c(Cl)c3)c2cc1OCCCN1CCOCC1` is reported as 102%.
`Cn1sc(=O)n(Cc2ccccc2)c1=O` has a remaining activity of 96%.
`Nc1[nH]nc2nc3ccccc3nc12` gave a remaining activity of 107%.
For `O=c1c2ccccc2[nH]c(=S)n1CCN1CCC(=C(c2ccc(F)cc2)c2ccc(F)cc2)CC1`, the remaining activity was 107%.
With `Nc1ccc2ncnc(NCCc3ccc(Oc4ccccc4)cc3)c2c1` the remaining activity was 99.9%.
For `O=C(Nc1cccc(Nc2cc(Nc3cccc(C(F)(F)F)c3)ncn2)c1)C1CC1`, the remaining activity was 102%.
For `N#CC(C#N)=C(N)/C(C#N)=C/c1ccc(O)cc1`, the remaining activity was 97.4%.
`Cc1ccc(Nc2nccc(N(C)c3ccc4c(C)n(C)nc4c3)n2)cc1S(N)(=O)=O` gave a remaining activity of 94%.
The remaining activity of `O=C(O)c1ccc2c3c1cccc3c(=O)n1c3ccccc3nc21` is reported as 22.8%.
The remaining activity of `COc1ccc(OC)c2c(=S)c3ccccc3[nH]c12` is reported as 108%.
The remaining activity of `CCOC(=O)c1c(C)[nH]c(/C=C2\C(=O)Nc3ccccc32)c1C` is reported as 89.9%.
With `Cn1c2ccccc2c2c3c(c4c5ccccc5n(CCC#N)c4c21)CNC3=O` the remaining activity was 2.62%.
The remaining activity of `O=S(=O)(c1cccc2cnccc12)N1CCCNCC1` is reported as 81.6%.
`CN(C)c1ccc(C=C2C(=O)Nc3ccccc32)cc1` has a remaining activity of 103%.
For `Cc1ccc(NC(=O)c2ccc(CN3CCN(C)CC3)cc2)cc1Nc1nc(-c2cccnc2)cs1`, the remaining activity was 101%.

Set 3
Organism: Sarcocystis neurona
Effect on: parasite growth
Concentration: 10 µM
For `CCN(CC)CC#CCOC(=O)C(O)(c1ccccc1)C1CCCCC1` (centres unmarked), the inhibition was -21.3%.
The inhibition of `COc1cccc2c1C(=O)c1c(O)c3c(c(O)c1C2=O)C[C@@](O)(C(=O)CO)C[C@@H]3O[C@H]1C[C@H](N)[C@@H](O)[C@H](C)O1` is reported as 79.2%.
`CCC[C@@H]1C[C@@H](C(=O)N[C@@H]([C@H]2O[C@H](SC)[C@H](O)[C@@H](O)[C@H]2O)[C@@H](C)O)N(C)C1` gave an inhibition of 16%.
The inhibition of `COc1ccc(CC2c3cc(OC)c(OC)cc3CC[N+]2(C)CCC(=O)OCCCCCOC(=O)CC[N+]2(C)CCc3cc(OC)c(OC)cc3C2Cc2ccc(OC)c(OC)c2)cc1OC` (centres unmarked) is reported as 6.6%.
The inhibition of `c1ccc(CC2=NCCN2)cc1` is reported as -28.3%.
The inhibition of `CCCCC(=O)N(Cc1ccc(-c2ccccc2-c2nnn[nH]2)cc1)[C@H](C(=O)O)C(C)C` is reported as -21%.
The inhibition of `COc1ccc2[n-]c([S+]([O-])Cc3ncc(C)c(OC)c3C)nc2c1.COc1ccc2[n-]c([S+]([O-])Cc3ncc(C)c(OC)c3C)nc2c1.[Mg+2]` (centres unmarked) is reported as 27.6%.
With `COc1cc(C)c(/C=C/C(C)=C/C=C/C(C)=C/C(=O)O)c(C)c1C` the inhibition was -69.1%.

Set 4
Structure (SMILES): Cc1cc(-n2nc(Cc3cc(F)cc(C(F)(F)F)c3)nc2C)ccc1C(N)=O
Effect on: cell-free assay
Method: competition with immobilised ligand
Concentration: 1 µM
It gave 88% for remaining binding (Ribosomal protein S6 kinase alpha-5, N-terminal kinase domain (RPS6KA5, Homo sapiens, UniProt O75582)).
For STK25 (Homo sapiens, UniProt O00506): remaining binding read 89%.
It gave 97% for remaining binding (CSK (Homo sapiens, UniProt P41240)).
For RET (Homo sapiens, UniProt P07949, V804L): remaining binding read 100%.
For ROS1 (Homo sapiens, UniProt P08922): remaining binding read 87%.
For MAP4K4 (Homo sapiens, UniProt O95819): remaining binding read 100%.
For Tyrosine-protein kinase JAK1, JH1 (JAK1, Homo sapiens, UniProt P23458): remaining binding read 100%.
It gave 83% for remaining binding (SIK3 (Homo sapiens, UniProt Q9Y2K2)).
TSSK3 (Homo sapiens, UniProt Q96PN8) — remaining binding: 55%.
